Results gathered from unrelated publications.
Compare with care: the assays were run in different laboratories. Several values in a cell are separate wells, animals, samples, runs or records.

SMILES	tested on	test	system	conditions	scale	measurement	result
COc1ccccc1CCN1CNc2c(c(=O)[nH]c(=O)n2-c2cccc(Cl)c2C)C1	P2X7	ATP-evoked current, inhibitor, whole-cell patch clamp	–	50 µM	relative to: ATP alone	inhibition ratio	1 and 0.95 and 0.94 and 0.99
CC(=O)NCC1CCCCN1c1nc(NCCn2nnc(C)n2)nc(N2CC3C(CCOc4cc(-c5scnc5C)ccc4CNC(=O)[C@@H]4C[C@@H](O)CN4C(=O)[C@@H](NC(=O)C4(F)CC4)C(C)(C)C)C3C2)n1 (some centres unmarked)	BRD9 and VHL-elongin C-elongin B	SPR	immobilized BRD9	–	relative to: binary KD over ternary KD	cooperativity alpha	> 26
COC1CN([C@H]2CC[C@H]([C@@]3(C)Oc4c(Cl)cc(C(=O)NCc5c(SC)cc(C)[nH]c5=O)c(C)c4O3)CC2)C1	–	RNA-seq, item: STAB2	human, whole blood	dose not given, 24 h	relative to: pretreatment baseline	log2 fold change	1.31
CC(C)(C)CC(C)(C)c1ccc(N)cc1	HBV core protein Cp149 dimer	solution NMR	–	4 molar equivalents, pH 7.5, 295 K, average over eight residues	relative to: apo Cp149 dimer	average chemical shift perturbation	0.103 ppm
CCC(=O)N(C)c1ccc(Cl)c(Cl)c1	alpha 1 adrenergic receptor	binding, radioligand binding	–	10 µM	–	inhibition	< 10%
O=c1c(-c2ccccc2F)c[nH]c2ccnc(Cl)c12	WDR5	–	–	–	relative to: parent hit compound, negative = stronger binding	binding free energy change	-1.42 kcal/mol
Cc1ncsc1-c1ccc(C(C)NC(=O)C2CC(O)CN2C(=O)C(NC(=O)CCCCCCCCCCN2CCCC(Nc3ncc(Cl)c(Nc4ccccc4S(=O)(=O)C(C)C)n3)C2)C(C)(C)C)cc1 (centres unmarked)	22Rv1	RNA-seq, item: NCOA5 mRNA	–	concentration not given	relative to: DMSO	log2 fold change	-1.09
Cc1ncsc1-c1ccc(CNC(=O)[C@@H]2C[C@@H](O)CN2C(=O)[C@@H](NC(=O)C2(F)CC2)C(C)(C)C)c(OCCC2CCN(c3nc(N(C)CCNC(=O)C(C)C)nc(N4CCn5nnc(CO)c5C4)n3)CC2)c1	BRD9 and VHL-elongin C-elongin B	SPR	immobilized BRD9	–	relative to: binary KD over ternary KD	cooperativity alpha	6.2
CCC(C)C[C@](C)(CC)c1ccc(O)cc1 (some centres unmarked)	HBV core protein Cp149 dimer	solution NMR	–	4 molar equivalents, pH 7.5, 295 K, average over eight residues	relative to: apo Cp149 dimer	average chemical shift perturbation	0.021 ppm
Fc1ccc(Nc2nc(NC3CCCCC3)c3cc(C(F)(F)F)ccc3n2)cc1F	β2AR/β1AR ICL3 chimera	β-arrestin2 recruitment, antagonist, BRET	–	–	relative to: isoprenaline maximal response	maximal inhibition	-13.5%
CCCCCCc1ccc(N)cc1	HBV core protein Cp149 dimer	solution NMR	–	4 molar equivalents, pH 7.5, 295 K, average over eight residues	relative to: apo Cp149 dimer	average chemical shift perturbation	0.052 ppm
Cn1ccc2cc(-n3c(=O)[nH]c4sc5c(c4c3=O)CCCC5)ccc21	L-type calcium channel rat	binding, radioligand binding	–	10 µM, benzothiazepine site	–	inhibition	22%
CC(C)Cc1ccc(N)cc1	HBV core protein Cp149 dimer	solution NMR	–	4 molar equivalents, pH 7.5, 295 K, average over eight residues	relative to: apo Cp149 dimer	average chemical shift perturbation	0.052 ppm
c1ccc(-c2n[nH]cc2-c2ccnc3ccccc23)nc1	TOR1 (Candida albicans)	kinase binding, MIB/MS competition	Candida albicans lysate	10 µM	relative to: DMSO	log2 fold change	-0.36
CCCCCCc1ccc2occc2c1	HBV core protein Cp149 dimer	solution NMR	–	4 molar equivalents, pH 7.5, 295 K, average over eight residues	relative to: apo Cp149 dimer	average chemical shift perturbation	0.016 ppm
Nc1ncc(-c2cc(-c3cnn(CC(F)(F)F)c3)ncc2F)nc1C(=O)NC1CNCC(F)C1 (centres unmarked)	MLCK	KINOMEscan competition binding	–	1 µM	relative to: DMSO control	remaining binding	67%
CC(=O)NCC1CCCCN1c1nc(NCC2Cc3ccccc3O2)nc(N2CC3C(CCOc4cc(-c5scnc5C)ccc4CNC(=O)C4CC(O)CN4C(=O)C(NC(=O)C4(F)CC4)C(C)(C)C)C3C2)n1 (centres unmarked)	BRD9 and VHL-elongin C-elongin B	SPR	immobilized BRD9	–	relative to: binary KD over ternary KD	cooperativity alpha	> 37
CCCCCCCCCCCCC/C=C/C=O	hippocalcin (human)	IA-probe cysteine labelling, covalent modifier, competitive isoTOP-ABPP	proteome, soluble, MDA-MB-231	100 µM, 60 min, in vitro	relative to: DMSO over compound, higher = stronger blockade	isoTOP-ABPP ratio	1.1
C=CC(=O)N1[C@@H](c2ccc3c(c2)OCO3)c2[nH]c3ccccc3c2C[C@H]1C(=O)N1CCN(C)CC1	human cyclin E1 N112C-3xFLAG:CDK2	co-IP with TMT proteomics, item: KPNB1	–	concentration not given, Q14974	relative to: wild type DMSO	relative co-enrichment	101%
C=CC(=O)Nc1cccc(Cn2ncc3cnc(Nc4cnn(CCOC)c4)nc32)c1	human IKK-alpha	KINOMEscan	–	100 nM	relative to: control	binding	100%
